Measured values gathered from unrelated publications.
Every numbered part comes from another study and shows a few of its results, in no order. Positions count from the first letter of the parent shown.

Set 1 — target: CCNF, cyclin fold, Cln2 fusion (human); method: yeast growth competition, sequencing; matrix: yeast; setting: strong parent motif; baseline: not given; reading: higher = stronger binding
Parent: PKN2 docking peptide (human); VSAVRKLDFSDTM
| Change | normalised enrichment score |
| --- | --- |
| VSASRKLDFSDTM [V4S] | 6.92 |
| VSAVRKLEFSDTM [D8E] | 7 |
| VSAVRKLDFSHTM [D11H] | 7.02 |
| VSAVRKYDFSDTM [L7Y] | -0.0697 |
| VSAVRKWDFSDTM [L7W] | -0.0494 |
| VSLVRKLDFSDTM [A3L] | 6.62 |
| VSFVRKLDFSDTM [A3F] | 5.81 |
| VSAVRFLDFSDTM [K6F] | 6.57 |
| VSAVRKLDFSMTM [D11M] | 7.53 |
| VRAVRKLDFSDTM [S2R] | 7.57 |
| VSACRKLDFSDTM [V4C] | 7.04 |
| VSAVRKLDFMDTM [S10M] | 7.25 |
| VSAVRKLDFSDDM [T12D] | 6.66 |
| VSAPRKLDFSDTM [V4P] | 5.27 |
| VSAVRKLDFSDCM [T12C] | 6.21 |
| VSAVRQLDFSDTM [K6Q] | 6.6 |
| VSAVRKLDPSDTM [F9P] | 0.596 |
| VSAVRKLDFSDGM [T12G] | 6.03 |
| VSAVRKADFSDTM [L7A] | -0.0748 |
| VSAVRKLDFRDTM [S10R] | 7.51 |
| VSAVRYLDFSDTM [K6Y] | 6.66 |
| VSAVRKLDFSFTM [D11F] | 7.5 |
| VSAVRKLDQSDTM [F9Q] | 0.123 |
| VSAVRKLDFSDWM [T12W] | 7.23 |
| VSAVRKLDFDDTM [S10D] | 7.22 |

Set 2 — method: universal PBM; form: double-stranded DNA, one strand shown; matrix: in vitro; tested at: 600 nM; reading: higher = stronger binding
Target: Sal-like protein 4, full length isoform A (SALL4, Homo sapiens, UniProt Q9UJQ4, residues 1-1053)
UniProt Q9UJQ4, sequence (whole entry, looked up): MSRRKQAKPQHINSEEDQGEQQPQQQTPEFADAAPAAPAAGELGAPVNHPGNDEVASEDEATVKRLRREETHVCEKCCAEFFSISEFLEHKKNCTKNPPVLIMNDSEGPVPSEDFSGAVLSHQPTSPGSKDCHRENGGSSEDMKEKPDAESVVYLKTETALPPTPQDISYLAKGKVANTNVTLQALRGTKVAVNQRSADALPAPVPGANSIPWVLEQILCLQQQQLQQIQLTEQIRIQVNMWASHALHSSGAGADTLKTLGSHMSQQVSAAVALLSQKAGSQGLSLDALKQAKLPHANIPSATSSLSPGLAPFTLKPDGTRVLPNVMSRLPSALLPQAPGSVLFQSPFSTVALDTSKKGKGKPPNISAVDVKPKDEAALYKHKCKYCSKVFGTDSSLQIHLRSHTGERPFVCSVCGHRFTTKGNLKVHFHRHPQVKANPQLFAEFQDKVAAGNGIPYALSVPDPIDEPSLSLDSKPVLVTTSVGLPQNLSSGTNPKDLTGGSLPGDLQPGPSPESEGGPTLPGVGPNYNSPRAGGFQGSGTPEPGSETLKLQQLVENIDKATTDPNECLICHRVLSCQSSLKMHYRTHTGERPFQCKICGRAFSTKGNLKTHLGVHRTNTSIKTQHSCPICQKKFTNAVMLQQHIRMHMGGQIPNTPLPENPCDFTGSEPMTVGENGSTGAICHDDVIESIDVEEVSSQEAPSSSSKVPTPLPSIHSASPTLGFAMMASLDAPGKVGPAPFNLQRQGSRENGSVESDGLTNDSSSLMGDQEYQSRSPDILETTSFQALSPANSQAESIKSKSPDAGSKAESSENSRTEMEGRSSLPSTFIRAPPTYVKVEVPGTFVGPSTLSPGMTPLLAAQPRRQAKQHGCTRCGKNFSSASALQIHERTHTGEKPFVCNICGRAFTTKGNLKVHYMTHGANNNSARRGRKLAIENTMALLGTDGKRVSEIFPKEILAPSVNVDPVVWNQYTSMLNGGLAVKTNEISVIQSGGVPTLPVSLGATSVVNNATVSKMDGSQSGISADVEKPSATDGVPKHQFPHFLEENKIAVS
Setting: 8-mer, flanks averaged, mean of replicates
| Oligonucleotide | E-score |
| --- | --- |
| AATCGCAA | -0.00149 |
| CACATCGA | 0.0284 |
| CAAAGATG | 0.0901 |
| CTAGGGAA | 0.00534 |
| CATAGCGA | 0.0192 |
| ACTTACTC | 0.00831 |
| AGCATGAT | 0.128 |
| CGAAAGGA | 0.154 |
| AACAACAC | 0.152 |
| GCACCTCA | -0.2 |
| AAAACACT | 0.17 |
| TCGAAAAA | 0.264 |
| ACCATTAT | 0.0792 |
| ACGCACTC | -0.11 |
| CGTACGCA | -0.197 |
| ATATTTAG | 0.391 |
| GTTATCAA | 0.195 |
| CCACGCTA | -0.104 |
| AGAACCAC | -0.0488 |
| ATTAGCTG | 0.0754 |
| CTGATCAA | -0.0313 |
| CAATAGAC | 0.191 |
| TCGACGAA | 0.00341 |
| AGTCCACG | -0.156 |
| AAGCGGGT | -0.271 |

Set 3 — method: RNA Bind-n-Seq; form: RNA; matrix: in vitro; tested at: 200 nM; setting: whole 134-nt RNA, ends assumed; added: 150 mM KCl; baseline: input library; reading: higher = stronger binding
Target: Ras GTPase-activating protein-binding protein 1, full length (G3BP1, Homo sapiens, UniProt Q13283)
UniProt Q13283, sequence (whole entry, looked up): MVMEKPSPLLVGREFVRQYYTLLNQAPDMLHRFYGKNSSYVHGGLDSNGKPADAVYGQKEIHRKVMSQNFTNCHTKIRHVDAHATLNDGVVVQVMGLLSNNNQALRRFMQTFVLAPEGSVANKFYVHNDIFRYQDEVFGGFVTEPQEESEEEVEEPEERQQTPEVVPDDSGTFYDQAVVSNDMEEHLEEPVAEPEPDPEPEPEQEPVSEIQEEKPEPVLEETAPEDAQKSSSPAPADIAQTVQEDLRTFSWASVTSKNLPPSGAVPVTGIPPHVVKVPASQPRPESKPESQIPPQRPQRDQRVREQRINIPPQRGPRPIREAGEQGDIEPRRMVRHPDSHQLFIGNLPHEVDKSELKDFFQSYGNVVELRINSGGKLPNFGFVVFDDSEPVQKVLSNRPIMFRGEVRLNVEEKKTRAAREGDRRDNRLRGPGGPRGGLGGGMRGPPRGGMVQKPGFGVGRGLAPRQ
Constant ends, left off below: GGGAGUUCUACAGUCCGACGAUC … UGGAAUUCUCGGGUGUCAAGG
| Oligonucleotide | log2 enrichment |
| --- | --- |
| CUGUGCUACACAUCGUAUGUACCGAAUCGGGGCCCCCCGGGCCCCCCGGGGCCCCCCGGGGAAAGUAUUAUGUUACGCCGUUCGGAUCUG | -1.09 |
| UAACUUUAGAGGAGGAUCUGAUGGAUAUGGCAGUGGACGUGGAUUUGGGGAUGGCUAUAAUGGCUAUGGAGGAGGACCUGGAGGUGGCAA | 0.154 |
| AACAUGCAGGUGGGCAUCUUUGGGAAGUGGGGCAAGGGGGGGAUAGGGAGGGGGGUAACACUUUGGGAACAGGUGGUCCCAGGUCGUUUC | 1.3 |
| ACCAUGCAGGUGGGCAUCUUUGCGAAGUGGGGCAAGGGGGGGAUAGGGAGGGGGGUAACACUUUGGGAACAGGUGGUCCCAGGUCGUUUC | 1.5 |
| UCCUGUGCUACACAUCGUAUGUACCGAAUCGGGGUUUUUGGGGUUUUUUUGGGGUGGGGAAAGUAUUAUGUUACGCCGUUCGGAUCUGCA | 0.825 |
| UUGCUGUCACCCGCUGCCUGUCUGCAGGAUCCCGGAUUCCGUAUCAGGGGACCGAAAUUAGUCGGAAAAUAGGAAGCAGGUGCUCGCUUG | -1.59 |
| CCUCAAGUCCUGUGCUACACAUCGUAUGUACCGAAUCGGGUGGUGGGUGGGGAAAGUAUUAUGUUACGCCGUUCGGAUCUGCACUUCCAG | 1.03 |
| UAACUUUAGAGGAGGAUCUGAUGGAUAUGGCAGUGGACGUGGAUUAGGGGAUGGCUAUAAUGGGUAUGGAGGAGGACCUGGAGGUGGCAA | 0.341 |
| CAAGUCCUGUGCUACACAUCGUAUGUACCGAAUCGGUUUGGGUUUGGGGUUUGGGAAAGUAUUAUGUUACGCCGUUCGGAUCUGCACUUC | -0.318 |
| CAGCAGUGAGUCUCUUCAGAAAACCCUUUUCUACAGUUAGGGUUGAGUUACUUCCUAUCAAGCCAGUACGUGCUAACAGGCUCAAUAUUC | -1.26 |
| CUGUGCUACACAUCGUAUGUACCGAAUCGGGUUUUUUUGGGUUUUUUUGGUUUUUUUGGGGAAAGUAUUAUGUUACGCCGUUCGGAUCUG | -1.12 |
| AGUCCUGUGCUACACAUCGUAUGUACCGAAUCGGUUUUUGGUUUUUGGGUUUUUGGGGAAAGUAUUAUGUUACGCCGUUCGGAUCUGCAC | -0.977 |
| AGUCCUGUGCUACACAUCGUAUGUACCGAAUCGGGUUUUUGGGUGGGAAAAAAAGGGAAAGUAUUAUGUUACGCCGUUCGGAUCUGCACU | -0.359 |
| CACAGACAACACGCACCCACACAGACACAGAGGGAAGGGGUUGGGAUGGGGACAGGGUGCACAGCAGGGCGGGGUAGGACCCCCGCCCCU | 1.92 |

Set 4 — method: protein-binding microarray; form: double-stranded DNA, one strand shown; matrix: in vitro; tested at: 250 nM; setting: 60-bp whole probe; added: salmon DNA 0.4 mg/ml; baseline: random background probes; reading: higher = stronger binding; constant ends, left off below: GCCTAGCAC … GTCTTGATTCGCTTGACGCTGCTG
Target: Interferon regulatory factor 7, full length, phosphomimetic (IRF7, Homo sapiens, UniProt Q92985, residues 1-503, S101K/S471D/S472D/S475D/S476D/S477D/S483D/S484D/S487D)
Target sequence (chain): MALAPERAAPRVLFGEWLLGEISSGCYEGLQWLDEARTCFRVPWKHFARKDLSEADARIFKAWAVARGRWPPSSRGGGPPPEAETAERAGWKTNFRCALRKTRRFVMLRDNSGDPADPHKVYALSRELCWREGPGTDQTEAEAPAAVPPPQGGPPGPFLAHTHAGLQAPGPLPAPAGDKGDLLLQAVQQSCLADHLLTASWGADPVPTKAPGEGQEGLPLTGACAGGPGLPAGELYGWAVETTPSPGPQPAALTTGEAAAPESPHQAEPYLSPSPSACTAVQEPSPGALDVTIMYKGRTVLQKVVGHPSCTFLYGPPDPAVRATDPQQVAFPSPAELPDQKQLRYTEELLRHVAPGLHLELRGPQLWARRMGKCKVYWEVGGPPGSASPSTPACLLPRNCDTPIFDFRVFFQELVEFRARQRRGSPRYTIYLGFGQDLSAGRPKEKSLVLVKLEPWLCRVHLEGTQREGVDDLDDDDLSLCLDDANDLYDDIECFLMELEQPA
| Oligonucleotide | log fluorescence |
| --- | --- |
| TTAGATATCGGTATCGATTAGTGCTAG | 1.39 z-score |
| GACGGACTGGACTATCGCGACGTGCTA | -0.827 z-score |
| TTCTTTTTTTCTTTTATTAGGTGCTAG | 1.81 z-score |
| TCACCCCTCAGATCTGCCACTGTGCTA | -0.191 z-score |
| TTAGGACTGGGTTTCCGTTAGTGCTAG | 1.83 z-score |
| GACGGTTTCGGGACTCGGGACGTGCTA | 5.36 z-score |
| CAGTTTATTTATTTTTACATGTGCTAG | 1.28 z-score |
| TTAGATTACGGGTTTCGATTAGTGCTA | 6.89 z-score |
| GACGATTTCATTCTCGAGACGTGCTAG | 1 z-score |
| TTACGTTTCCTTCTCCTTTAGTGCTAG | 2.25 z-score |
| TCATTTGTCACTCTCAGACTGTGCTAG | 1.12 z-score |
| TCATTAATGAAAATTCTAACTGTGCTA | 0.381 z-score |
| GACGGTTTCGGTCTCGGGCCGTGCTAG | 6.78 z-score |
| GACGGACTGGACTATCGGGTCGTGCTA | -0.523 z-score |
| TCAATTTTGTGTTTTCAACTGTGCTAG | 0.521 z-score |
| GACGAACTGGCGTTTCGAGACGTGCTA | -0.0586 z-score |
| TTAGGTATCCTTATCCTATAGTGCTAG | 0.768 z-score |
| GGTGCTCTGCAGCTCAGGCAGTGCTAG | -0.684 z-score |

Set 5 — method: RNA Bind-n-Seq; form: RNA; matrix: in vitro; tested at: 365 nM; baseline: no-protein control; reading: higher = stronger binding
Target: RNA binding protein fox-1 homolog 2, RRM domain, GST-SBP tag (RBFOX2, Homo sapiens, UniProt O43251-10, residues 100-194)
Setting: natural RNA segment, single round, ends assumed
Constant ends, left off below: GGGAGUUCUACAGUCCGACGAUC … UGGAAUUCUCGGGUGCCAA
Target sequence (chain): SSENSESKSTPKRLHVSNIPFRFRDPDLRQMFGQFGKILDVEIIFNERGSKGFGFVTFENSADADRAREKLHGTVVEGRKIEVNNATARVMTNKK
| Oligonucleotide | RBNS enrichment (R) |
| --- | --- |
| GAUAUGCUUACUAAAUCUUCAGCAUAGAAGGAAGUGUGUUUGCCUAAAACAAUCUAAAACAAUUCCCUUCUUUUUCAUCCCAGACCAAUGGCAUUAUUAGGUCUUAAAGU | 0.38 |
| CAUGUGUACAUUCUGCCUAGAGUGUAGCCUAAAGGGCAGGGCCCACGUGUAUAGUAUCUGUAUAUAAGUUGCUGUGUGUCUGUCCUGAUUUCUACAACUGGAGUUUUUUU | 0.427 |
| CCCGUAAGUGCCACUAGGAAGGAAACCUCAAAUCCACCUACACUGAACCCAGGAACAUCUACAGCAGUCCCCAGAAAAACAUUCUUUCUGAGGAGGUUUAGGUGAAGUUG | 0.297 |
| GUUUCCCCUGAGCAGUCUUCCUCAGGGCUCAGUGUACCCUCGGGAGACCCUGGGAGACCAAGGCAUUCCCUGAAUAUCGUCCCCUUGCCUUCCCUACCGGCCAUUUCCUU | 0.325 |
| GUUUUCGGCAGGGGCCUUGUCUCUCACUGCAUUUGGUCAGGGGGGCAUGAAUAAAGGCUACAGGCUCAACGUGUGUGGCAGCUUUCGGUCUUUCCCUCUGGGUGCUUGGU | 3.6 |
| ACUUUUUCUAUAAGAAGAAAAAUUAAGACCACUUAUUUGAAAACAAAGAUGAAGUCUCACCUUCCAGUUUGCUUUCUCAUUAGUUUUUUCCAAAGUAAGUUAUUGAAGCU | 0.349 |
| GGAUGUUGGAGUCUGGUGUAGAGACAGGCAGGUUGCAGAAAAGCACAGAUCUUUGCCAGUGGUUGGCCCUGAUUGAAAACCUGUUUGAAACAGACUGUGUAGGAAAAAUC | 0.526 |
| UAAAAACAAAACAACAAACUUGAUUCCUGGGCUGUGGCAAGUUUUCUUUGUCCUCAAAACUGGCAGAUACUGGAGCUGGGCAGCCAUUUUUCCUUUUAGUGUCUCUUGAA | 0.649 |
| CUAAUGCUAAUAUUUCCAUCAAAAUUUGCCUGUGGAAUAUAUACAGUUCUUAAUUUUAAACUGUCAGUUCUUGAGAUAUACCGUGUGAAGCUAUUGUCAGCUUCUCUAUU | 0.63 |
| AAAUAGCAUAAGCAUAUGCUUUUAACUCAUCAUAUUUUUAGUAGUGCUUUUUAGUUUUGUAUAUCAGAUGUCUAGCAGGCAUUCAGCUAAUGCAAAAACAGAUUAGUAUG | 0.531 |
| UACUGUCAAACAAUAAAGGGAGAAUGGUGCUGUUUAAAGUCACAUCCCUGUAAAUUGCAGAAUUCAAAAGUGAUUAUCUCUUUGAUCUACUUGCCUCAUUUCCCUAUCUU | 0.39 |
| AUCAUCACAGAUACGCAGUGUUAUGCAUGUGUAUAGAAGUGUGUGCACCAGCAUCAAACAUUGUGUGUGUGGAAGGGAAGAAGCCUGUCCAUUCUAAACGCAGUUGCCAG | 0.892 |

For quick reference, copied from above (set 2):
| Oligonucleotide | E-score |
| --- | --- |
| CGTACGCA | -0.197 |
| ATATTTAG | 0.391 |
| GTTATCAA | 0.195 |
| CCACGCTA | -0.104 |
| AGAACCAC | -0.0488 |
| ATTAGCTG | 0.0754 |
| CTGATCAA | -0.0313 |
| CAATAGAC | 0.191 |
| TCGACGAA | 0.00341 |
